Published values collected from several papers.
Numbered parts are unrelated; each lists some results of a single study.

Series 1
Target: RNA binding protein fox-1 homolog 2, RRM domain, GST-SBP tag (RBFOX2, Homo sapiens, UniProt O43251-10, residues 100-194)
Technique: RNA Bind-n-Seq
Form: RNA
Matrix: in vitro
Concentration: 365 nM
Setting: natural RNA segment, single round, ends assumed
Baseline: no-protein control
Direction: higher = stronger binding
Quantity: RBNS enrichment (R)
Constant ends, left off below: GGGAGUUCUACAGUCCGACGAUC … UGGAAUUCUCGGGUGCCAA
Construct (chain): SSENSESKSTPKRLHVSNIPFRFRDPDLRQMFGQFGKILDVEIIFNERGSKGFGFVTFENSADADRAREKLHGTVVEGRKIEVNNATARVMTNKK
Sequence = AUAUUGAAGUCCAGGGAGGGAGCGCCCCGGGCCGCGUCCGCCCCGUCCCACACUACGCCCCCGCCCCACUCCCGGGGCCUGCUAAUCUGAGGCCGAUCCGGGACCGGCCU; value = 0.278
Sequence = AAAUCUGGCUGCCCGUUUACUUUCUGAGCAAGCACUGGAGUCCACUCCGACCUUUUUCUUUGAACAUGCAUGCUGCUGGAAUAUGUAUAAAUCAGAACUAGCAGAAGUAG; value = 1.55
Sequence = GCAAAUUUUGUGAAAACAUAACAAUUUGAAGCUUCUGUAAUUUUGAGCACUGCUCUAACAACAAGCAUAAUAUAAAAUUAGUUAGAUUUUGCAAGUCUACAAAUGAGCUC; value = 0.311
Sequence = GCCAGGAAGACCCAUAACUGGUUUUAACACUAACUAGAGGGAAUGACUUCUUUGCAUAGUGAGUGACUUGGGCCUUCACAAACAGGGUGUGGAGUGGCAGGCAGAGGCCU; value = 0.586
Sequence = CUCCUUGUCUGAGGUGAAAGCCUUCAGUUUAGCUCCCUGGCCCUUGUGUGGAAGCAAUGUGGAGUGAAUGAGCAUAUUUUGAUUUAAGCAAGGUAGCUUGGAAUACCUUU; value = 18.5
Sequence = GCCCAGUAAGUAUGACGGUCGUGUCGCCUAACCAACGCAGAGCAGUGCUUUUUGUGUGGCUGAAGCGAUGUGCUGACGAAAAAAGGAAAAUUCUAGGACAAUCGUUGGCU; value = 0.251
Sequence = CUUGAAUCCCCCGUAAACACCAGACGAUUGAGUCUACCUUCUUUUCUUGGCCACCUCCCCAUUCACAACUACUUUCUCGCUCCCAGAAGGUUGAUCAGAUAUUCUACAAU; value = 0.752
Sequence = UCUUCUCUACUGCCCCAACUAUUGUGUGGCCUCUUGUGCUGAAAUCUCUGGCUUCAGAGCCUGAAACAAAGAGAAACAGGAUCUGUCUCUACCCAGCACAGCAAAUGGUU; value = 0.392
Sequence = CAGCUGUGGUCAGGUGACUUCCUGUCCCCUGGCAGCUCUGCUGAGUCCCUGUGUUUGAGCCUCCAGGGAGAAGGGUUUGGGCUGCAUUCUUCUUAUCCCCAUGCACAGAA; value = 0.643
Sequence = UGUCUUGACACAAGCUGUUUUUACACCAGUGUCAUCCCUUUCUUGUAGAAUAUACUAAUAAUCUGUGCCAACUCUACCUUCCCACUUUUACCUCUGACAUCAUUCUUUUU; value = 0.88
Sequence = UCCAGAUUAAUUUUCCGUGUUUGAAGUAUGUGCAUAUGUGCUUUACAGAAUAAAACAUCUGAAUUUAUUUGCUCCGCGUCUUCUUCCUCCAGCCGGAUGGGUGUUUUCUA; value = 0.438
Sequence = CCCUCGUGGCAGGCGGGCAUGUCCCGCUCCCUUCCGCCACCAAUUUGUAUUAGAGAAGGCACUUUGAUUGUACAAUACUUCACAUUGCUUUUUUAAUGCAUAAAGGUUUG; value = 0.404

Series 2
Target: Prothrombin, mature alpha-thrombin (F2, Homo sapiens, UniProt P00734)
Technique: aptamer microarray, sandwich
Form: DNA with 2'F-ANA
Matrix: in vitro
Concentration: 200 nM
Setting: whole 15-mer aptamer, many near background
With: Cy3 exosite-II aptamer, 400 nM
Direction: higher = stronger binding
Quantity: mean fluorescence intensity
Sequence: GGTTGGTGTGGTTGG
Modification = 2'F-ANA at 3 4 6 10 11 15; value = 221 a.u.
Modification = 2'F-ANA at 1 2 7 9 10 11 12 15; value = 64.2 a.u.
Modification = 2'F-ANA at 1 2 5 7 8 11; value = 54.4 a.u.
Modification = 2'F-ANA at 2 3 5 7 9 15; value = 97 a.u.
Modification = 2'F-ANA at 1 3 4 5 6 7 8 9 11 14; value = 67.6 a.u.
Modification = 2'F-ANA at 3 4 5 6 7 9 11 12 15; value = 150 a.u.
Modification = 2'F-ANA at 1 3 7 10 12; value = 121 a.u.
Modification = 2'F-ANA at 1 3 4 9 10 11 13 14 15; value = 56.6 a.u.
Modification = 2'F-ANA at 1 2 3 4 5 6 7 8 12 13 15; value = 181 a.u.
Modification = 2'F-ANA at 2 4 5 7 8 9 10 11 12 15; value = 49.3 a.u.
Modification = 2'F-ANA at 2 4 8 13; value = 287 a.u.
Modification = 2'F-ANA at 1 3 4 5 6 7 9 10 12 13 15; value = 54.7 a.u.
Modification = 2'F-ANA at 1 3 5 6 7 11 15; value = 52.1 a.u.
Modification = 2'F-ANA at 1 2 4 5 6 8 12 14; value = 51 a.u.
Modification = 2'F-ANA at 2 4 6 12 13 15; value = 320 a.u.
Modification = 2'F-ANA at 2 3 4 5 6 8 12 13; value = 132 a.u.
Modification = 2'F-ANA at 1 2 3 5 6 9 10 11 14; value = 44.5 a.u.
Modification = 2'F-ANA at 5 12 13 15; value = 107 a.u.
Modification = 2'F-ANA at 1 2 6 7 13; value = 119 a.u.
Modification = 2'F-ANA at 2 4 5 13; value = 55.7 a.u.
Modification = 2'F-ANA at 2 3 4 7 9 10 13 14 15; value = 186 a.u.

Series 3
Target: Centromere-binding protein 1, full length, N-terminal tag (CBF1, Saccharomyces cerevisiae, UniProt P17106, residues 1-351)
Chain of UniProt P17106 (whole entry, looked up): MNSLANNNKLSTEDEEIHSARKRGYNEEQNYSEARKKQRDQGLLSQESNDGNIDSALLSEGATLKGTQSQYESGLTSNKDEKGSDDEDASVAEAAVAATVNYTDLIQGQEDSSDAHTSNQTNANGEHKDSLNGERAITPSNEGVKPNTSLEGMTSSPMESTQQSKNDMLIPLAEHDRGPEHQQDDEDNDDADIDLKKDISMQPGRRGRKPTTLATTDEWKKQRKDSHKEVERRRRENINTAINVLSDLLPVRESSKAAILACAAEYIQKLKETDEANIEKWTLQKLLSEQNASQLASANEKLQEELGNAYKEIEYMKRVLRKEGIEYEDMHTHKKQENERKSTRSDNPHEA
Technique: protein-binding microarray
Form: double-stranded DNA, one strand shown
Matrix: in vitro
Concentration: 0.8 µM
Setting: whole 60-bp probe, no competitor
Direction: higher = stronger binding
Quantity: fluorescence intensity
Constant ends, left off below: … GTCTTGATTCGCTTGACGCTGCTG
Sequence = TGTACGAAGCTATATCACCTGACTATAGTAGTTAGG; value = 3920 a.u.
Sequence = TGTACGAAGCTATCAAGCGTGCTTATAGTAGTTAGG; value = 512 a.u.
Sequence = GAAAATTGGTGGTGGACCGTGACCGACACGCAATAG; value = 812 a.u.
Sequence = CTAAACTATTAAAATGTCGTGGTATAGCCCGATTTC; value = 495 a.u.
Sequence = GAAAGACAAAATATCAACGTGTTTTATTTATACTAG; value = 592 a.u.
Sequence = TGTACGAAGCTATGACATGACGCTATAGTAGTTAGG; value = 520 a.u.
Sequence = GAATATGGCGAATTTTACGTCACCGCCTCATGATAG; value = 527 a.u.
Sequence = GAAGACTAGTTTTGGAGCGTGCGTTCCATCTATTAG; value = 510 a.u.
Sequence = GAAAACTAGATGGCGCTCGTGATCCTGAAAACGTAG; value = 1940 a.u.
Sequence = TGTACGAAGCTATTTTTCGTGAGTATAGTAGTTAGG; value = 551 a.u.
Sequence = CCTAACTACTATAGTCATGCGTAATAGCTTCGTACA; value = 604 a.u.
Sequence = CCTAACTACTATACTCATGTCACATAGCTTCGTACA; value = 553 a.u.
Sequence = CTAATACACTTTTATCATGTGAAGATTGAAAGGTTC; value = 833 a.u.
Sequence = GAATCAACTTACTAACAGGTGACCTTATCGGTCTAG; value = 1480 a.u.
Sequence = CTAACAATTCATTGTCATGATGTACATAGAAAATTC; value = 554 a.u.
Sequence = GAATCGATTCTTTATCAGCTGTTATATACCCATTAG; value = 662 a.u.
Sequence = GAAAGGTTCCCTTTTCTGATGACTCTTCTTGCTTAG; value = 520 a.u.
Sequence = CTATGAAAAGCTGCCAACGTGACCTTACGTTCTTTC; value = 2520 a.u.
Sequence = CTATGTATTGCTGCTGATGTTTTAGGCACTTAGTTC; value = 527 a.u.
Sequence = GAATTCTTTTCGGGTGATGTCACTTAAAAACTCTAG; value = 528 a.u.
Sequence = CCTAACTACTATATTCACGTGCTATAGCTTCGTACA; value = 4510 a.u.

Series 4
Target: Sal-like protein 4, full length isoform B (SALL4, Homo sapiens, UniProt Q9UJQ4-2, residues 1-616)
Technique: universal PBM
Form: double-stranded DNA, one strand shown
Matrix: in vitro
Concentration: not given
Setting: 8-mer, flanks averaged, mean of replicates
Direction: higher = stronger binding
Quantity: E-score
Residues (chain): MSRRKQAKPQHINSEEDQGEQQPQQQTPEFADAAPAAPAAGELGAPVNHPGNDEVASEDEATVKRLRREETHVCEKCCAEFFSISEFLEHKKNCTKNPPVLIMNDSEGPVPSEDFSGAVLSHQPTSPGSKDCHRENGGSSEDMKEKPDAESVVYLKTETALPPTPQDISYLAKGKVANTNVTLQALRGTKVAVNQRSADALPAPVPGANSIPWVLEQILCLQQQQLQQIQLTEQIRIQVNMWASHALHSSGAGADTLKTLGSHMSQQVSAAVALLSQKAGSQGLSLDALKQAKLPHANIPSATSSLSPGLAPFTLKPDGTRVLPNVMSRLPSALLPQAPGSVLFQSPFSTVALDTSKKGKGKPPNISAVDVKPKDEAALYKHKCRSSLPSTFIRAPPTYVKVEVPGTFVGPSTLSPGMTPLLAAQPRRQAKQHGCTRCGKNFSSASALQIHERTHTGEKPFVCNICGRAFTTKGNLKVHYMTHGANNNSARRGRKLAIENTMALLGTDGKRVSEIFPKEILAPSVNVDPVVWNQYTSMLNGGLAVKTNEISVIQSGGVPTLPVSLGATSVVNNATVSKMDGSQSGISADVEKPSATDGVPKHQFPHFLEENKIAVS
Sequence = AAGAAGGC; value = 0.0139
Sequence = GACTAGGA; value = -0.0273
Sequence = CTGACCGA; value = -0.227
Sequence = ACGATCGA; value = 0.0483
Sequence = CTGACGAA; value = -0.0209
Sequence = AAGTCTGG; value = -0.168
Sequence = CAACCTCC; value = -0.104
Sequence = CTGATGCA; value = -0.0145
Sequence = CCCAATGA; value = 0.0698
Sequence = AAGGAGTC; value = -0.0483
Sequence = AGCCGCGA; value = -0.338
Sequence = GCGGCGTA; value = -0.274
Sequence = CTTATGAC; value = 0.19
Sequence = AGCAGACG; value = -0.302
Sequence = CATAGGGA; value = 0.0457
Sequence = ATTTGATC; value = -0.0485
Sequence = GGCGCCAA; value = -0.135
Sequence = AAGGTCCA; value = -0.0939
Sequence = ACTGAAAA; value = 0.255
Sequence = ACCGAGAT; value = 0.0616
Sequence = AGGTGAGG; value = -0.0908
Sequence = AGGCTCCG; value = -0.251
Sequence = AGCGCATC; value = -0.187
Sequence = CAACTGGA; value = -0.291
Sequence = CGTTCAGC; value = -0.202

Series 5
Target: PABPC1L2, full length, GST fusion (mouse, UniProt A0ABA7IW68)
Technique: RNAcompete
Form: RNA
Matrix: in vitro
Concentration: 20 nM
Setting: 7-mer, probes averaged, single round
Baseline: mean of 7-mers
Direction: higher = stronger binding
Quantity: 7-mer Z-score
Target sequence (chain): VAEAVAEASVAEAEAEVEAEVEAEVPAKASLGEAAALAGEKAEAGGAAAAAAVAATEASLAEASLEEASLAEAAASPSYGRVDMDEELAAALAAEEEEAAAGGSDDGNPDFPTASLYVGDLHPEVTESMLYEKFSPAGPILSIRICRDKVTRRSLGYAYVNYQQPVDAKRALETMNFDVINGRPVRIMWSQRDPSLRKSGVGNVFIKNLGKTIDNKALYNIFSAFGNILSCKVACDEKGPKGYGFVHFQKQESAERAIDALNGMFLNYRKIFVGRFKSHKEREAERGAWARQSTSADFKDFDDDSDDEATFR
Sequence = AGGCUAA; value = 0.245
Sequence = ACUUCUC; value = -0.338
Sequence = AGAAUAA; value = 0.383
Sequence = GGACUUC; value = -0.0409
Sequence = GGCCCGC; value = -0.18
Sequence = CUUCCUG; value = -0.34
Sequence = AAAUACA; value = 2.12
Sequence = ACAUAAG; value = 0.206
Sequence = AAACGAU; value = 0.981
Sequence = ACAGUCG; value = 0.0623
Sequence = UCUUUGG; value = -0.338
Sequence = ACGUCAG; value = -0.168
Sequence = AUUCUAC; value = -0.177
Sequence = CCAGCUC; value = -0.228
Sequence = AAUGAAA; value = 0.715
Sequence = GGCAAUC; value = 0.204
Sequence = AGGCGAA; value = 0.483
Sequence = AUAUCGA; value = -0.117
Sequence = UGUCCGC; value = -0.356
Sequence = AUGCUAA; value = 0.0551
Sequence = CUACGGA; value = -0.0699
Sequence = UAACCCU; value = -0.306
Sequence = CUAGAAG; value = -0.0718
Sequence = UGUGCUG; value = -0.135
Sequence = CGCUGAC; value = -0.202

A few entries again (series 4):
Sequence = ACCGAGAT; value = 0.0616
Sequence = GGCGCCAA; value = -0.135
Sequence = ACTGAAAA; value = 0.255
Sequence = ATTTGATC; value = -0.0485
Sequence = AAGGAGTC; value = -0.0483
Sequence = CGTTCAGC; value = -0.202
Sequence = AGGTGAGG; value = -0.0908
Sequence = AAGAAGGC; value = 0.0139
Sequence = CTTATGAC; value = 0.19
Sequence = CAACCTCC; value = -0.104
Sequence = GCGGCGTA; value = -0.274
